Results of several laboratories.
Compare with care: the assays were run in different laboratories. Several values in a cell are separate wells, animals, samples, runs or records. Numbers after ± are the reported error.
UniProt P34969, sequence (whole entry, looked up): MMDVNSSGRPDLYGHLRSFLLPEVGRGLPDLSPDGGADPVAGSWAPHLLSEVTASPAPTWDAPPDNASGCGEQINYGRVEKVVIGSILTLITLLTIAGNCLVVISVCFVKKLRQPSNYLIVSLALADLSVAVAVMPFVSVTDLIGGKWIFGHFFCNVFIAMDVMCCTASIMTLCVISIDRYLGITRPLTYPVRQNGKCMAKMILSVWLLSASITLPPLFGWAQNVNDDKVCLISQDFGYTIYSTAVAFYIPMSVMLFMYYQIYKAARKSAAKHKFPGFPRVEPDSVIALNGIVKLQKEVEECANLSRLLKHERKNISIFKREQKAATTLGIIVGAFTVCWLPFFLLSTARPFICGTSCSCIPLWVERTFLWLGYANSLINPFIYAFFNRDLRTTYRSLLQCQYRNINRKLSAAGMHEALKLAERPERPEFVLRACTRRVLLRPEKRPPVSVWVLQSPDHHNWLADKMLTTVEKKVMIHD
UniProt Q12908, sequence (whole entry, looked up): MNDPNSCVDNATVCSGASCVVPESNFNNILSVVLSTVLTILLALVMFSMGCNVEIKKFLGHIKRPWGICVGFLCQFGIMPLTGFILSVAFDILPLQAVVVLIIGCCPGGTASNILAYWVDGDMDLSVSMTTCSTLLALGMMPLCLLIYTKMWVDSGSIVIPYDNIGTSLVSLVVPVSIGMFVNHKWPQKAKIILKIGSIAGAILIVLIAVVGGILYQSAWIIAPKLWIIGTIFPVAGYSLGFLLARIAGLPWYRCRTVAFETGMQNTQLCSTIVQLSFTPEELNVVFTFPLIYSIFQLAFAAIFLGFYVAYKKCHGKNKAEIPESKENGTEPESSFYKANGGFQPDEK
UniProt P47746, sequence (whole entry, looked up): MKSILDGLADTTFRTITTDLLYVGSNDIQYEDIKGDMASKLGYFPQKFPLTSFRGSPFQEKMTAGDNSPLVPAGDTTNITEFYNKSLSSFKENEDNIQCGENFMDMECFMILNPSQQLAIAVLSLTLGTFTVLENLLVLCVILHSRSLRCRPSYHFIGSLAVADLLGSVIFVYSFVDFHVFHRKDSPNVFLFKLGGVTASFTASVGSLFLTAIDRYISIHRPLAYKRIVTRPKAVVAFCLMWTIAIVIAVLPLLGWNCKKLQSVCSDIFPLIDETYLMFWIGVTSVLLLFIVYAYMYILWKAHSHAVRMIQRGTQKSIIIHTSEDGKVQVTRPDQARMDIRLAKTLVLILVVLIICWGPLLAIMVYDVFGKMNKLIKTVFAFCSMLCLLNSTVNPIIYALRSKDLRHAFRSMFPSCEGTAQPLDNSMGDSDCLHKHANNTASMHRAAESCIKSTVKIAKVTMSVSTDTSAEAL
UniProt P25929, sequence (whole entry, looked up): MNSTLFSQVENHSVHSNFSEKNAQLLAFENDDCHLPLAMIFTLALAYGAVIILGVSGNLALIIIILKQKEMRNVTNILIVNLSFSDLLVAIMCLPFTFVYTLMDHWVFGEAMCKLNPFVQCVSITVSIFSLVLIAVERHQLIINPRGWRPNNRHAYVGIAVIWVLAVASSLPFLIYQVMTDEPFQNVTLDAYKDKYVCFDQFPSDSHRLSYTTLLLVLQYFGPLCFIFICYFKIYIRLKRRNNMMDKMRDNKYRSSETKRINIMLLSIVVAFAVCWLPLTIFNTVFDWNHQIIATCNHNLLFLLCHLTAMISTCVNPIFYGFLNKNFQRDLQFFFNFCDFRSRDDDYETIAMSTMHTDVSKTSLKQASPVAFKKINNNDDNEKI
UniProt P20309, sequence (whole entry, looked up): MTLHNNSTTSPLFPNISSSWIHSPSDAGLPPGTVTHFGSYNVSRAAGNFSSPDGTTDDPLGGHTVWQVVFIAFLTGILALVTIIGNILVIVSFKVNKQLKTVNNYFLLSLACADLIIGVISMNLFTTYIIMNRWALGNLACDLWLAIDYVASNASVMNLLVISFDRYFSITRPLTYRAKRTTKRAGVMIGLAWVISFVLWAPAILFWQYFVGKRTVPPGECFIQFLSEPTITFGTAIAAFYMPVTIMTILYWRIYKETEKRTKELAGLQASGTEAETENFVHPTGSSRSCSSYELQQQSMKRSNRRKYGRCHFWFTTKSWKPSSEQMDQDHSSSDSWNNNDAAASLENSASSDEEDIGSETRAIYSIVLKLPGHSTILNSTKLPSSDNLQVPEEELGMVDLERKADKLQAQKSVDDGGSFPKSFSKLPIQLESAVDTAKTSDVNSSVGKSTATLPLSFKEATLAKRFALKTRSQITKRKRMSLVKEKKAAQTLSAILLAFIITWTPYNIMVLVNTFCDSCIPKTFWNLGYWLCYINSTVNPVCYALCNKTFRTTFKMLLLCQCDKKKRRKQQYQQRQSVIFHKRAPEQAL
UniProt Q9R0C9, sequence (whole entry, looked up): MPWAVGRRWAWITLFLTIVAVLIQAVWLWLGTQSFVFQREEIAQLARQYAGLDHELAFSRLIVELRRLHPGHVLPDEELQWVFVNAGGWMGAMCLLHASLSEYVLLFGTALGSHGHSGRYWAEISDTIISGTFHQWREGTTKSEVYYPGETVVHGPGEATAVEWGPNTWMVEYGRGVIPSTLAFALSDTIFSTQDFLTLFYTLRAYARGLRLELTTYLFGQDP
UniProt O42275, sequence (whole entry, looked up): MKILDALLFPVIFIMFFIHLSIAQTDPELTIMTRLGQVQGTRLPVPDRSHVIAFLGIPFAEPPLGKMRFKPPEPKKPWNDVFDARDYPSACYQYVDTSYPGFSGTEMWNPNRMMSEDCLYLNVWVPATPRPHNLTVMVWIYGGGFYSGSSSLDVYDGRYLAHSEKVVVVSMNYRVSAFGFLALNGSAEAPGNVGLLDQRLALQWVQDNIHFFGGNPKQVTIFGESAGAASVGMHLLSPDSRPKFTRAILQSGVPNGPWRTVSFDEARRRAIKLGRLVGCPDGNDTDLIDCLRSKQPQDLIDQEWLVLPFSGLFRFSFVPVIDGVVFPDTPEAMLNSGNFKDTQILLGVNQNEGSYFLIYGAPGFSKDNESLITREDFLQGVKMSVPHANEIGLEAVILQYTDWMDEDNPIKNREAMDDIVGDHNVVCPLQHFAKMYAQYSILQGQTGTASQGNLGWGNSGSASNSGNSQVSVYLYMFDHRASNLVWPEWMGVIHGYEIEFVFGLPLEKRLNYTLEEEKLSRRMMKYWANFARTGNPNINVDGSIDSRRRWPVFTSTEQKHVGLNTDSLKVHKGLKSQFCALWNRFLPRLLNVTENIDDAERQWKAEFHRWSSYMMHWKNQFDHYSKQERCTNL
UniProt P00811, sequence (whole entry, looked up): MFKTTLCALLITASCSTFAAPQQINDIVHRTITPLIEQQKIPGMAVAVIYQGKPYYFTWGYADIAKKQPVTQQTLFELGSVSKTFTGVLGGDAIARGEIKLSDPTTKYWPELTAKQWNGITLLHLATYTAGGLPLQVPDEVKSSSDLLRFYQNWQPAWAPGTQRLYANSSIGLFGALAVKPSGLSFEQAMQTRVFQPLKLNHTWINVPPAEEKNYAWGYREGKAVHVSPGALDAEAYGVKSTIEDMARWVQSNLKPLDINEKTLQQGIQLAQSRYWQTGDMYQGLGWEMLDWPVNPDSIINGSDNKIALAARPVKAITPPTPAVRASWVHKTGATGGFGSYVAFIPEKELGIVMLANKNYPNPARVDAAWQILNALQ
UniProt P34975, sequence (whole entry, looked up): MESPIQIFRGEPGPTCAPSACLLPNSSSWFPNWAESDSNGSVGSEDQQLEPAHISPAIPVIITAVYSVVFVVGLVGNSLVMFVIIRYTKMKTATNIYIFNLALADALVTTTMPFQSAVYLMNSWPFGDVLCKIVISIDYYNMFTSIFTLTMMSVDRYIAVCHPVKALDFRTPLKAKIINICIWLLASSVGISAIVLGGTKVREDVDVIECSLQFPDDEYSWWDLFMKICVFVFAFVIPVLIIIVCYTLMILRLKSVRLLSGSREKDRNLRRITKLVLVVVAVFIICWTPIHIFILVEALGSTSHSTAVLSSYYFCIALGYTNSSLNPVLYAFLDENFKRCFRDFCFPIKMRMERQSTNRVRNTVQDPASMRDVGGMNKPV

Compound	target	assay	system	conditions	Ki
COC(=O)C1C(OC(c2ccc(Cl)cc2)c2ccc(Cl)cc2)CC2CCC1N2C (single isomer, unassigned)	CHRM3 (Homo sapiens, UniProt P20309)	ligand displacement, radioligand	–	–	2.39 µM
O=c1sc2ccccc2n1CCN1CCCC1	Sigmar1 (Rattus norvegicus, UniProt Q9R0C9)	binding, radioligand binding	rat liver membranes	with: [3H](+)-pentazocine 5 nM	0.578 ± 0.041 µM
CCOC(=O)[C@](CC)(CCCSCCOCCOCCNC(=O)c1ccc(-c2c3ccc(=N)c(S(=O)(=O)O)c-3oc3c(S(=O)(=O)O)c(N)ccc23)c(C(=O)O)c1)NC(=O)c1ccc(C2CC2)c(Cc2ccc(F)cc2)n1	Cnr1 (Mus musculus, UniProt P47746)	ligand displacement, radioligand	–	cell membranes	> 10 µM
C[C@H](CCC(=O)NCC(=O)O)[C@H]1CC[C@H]2[C@@H]3C(=O)C[C@H]4C[C@H](O)CC[C@]4(C)[C@H]3CC[C@]12C	SLC10A2 (Homo sapiens, UniProt Q12908)	transporter uptake, inhibitor, radiometric	–	–	20.4 µM
CC(=O)N[C@@H](CCCNC(=N)N)C(=O)N[C@@H](Cc1ccc(O)cc1)C(=O)N[C@@H](CCCNC(=N)NC(=O)NCCCCN)C(=O)N[C@H](CC(C)C)C(=O)N[C@@H](CCCNC(=N)N)C(=O)N[C@@H](Cc1ccc(O)cc1)C(N)=O	NPY1R (Homo sapiens, UniProt P25929)	ligand displacement, radioligand	–	–	> 5 µM
CC(C)[C@H](NC(=O)c1ccc(CCc2nc3c(c(=O)[nH]2)CCC3)cc1)C(=O)NC1COC1	Collagenase 3 (MMP13, Homo sapiens, UniProt P45452)	enzyme activity, inhibitor	–	–	0.0122 µM and 0.012 µM
COc1ccc([C@@H]2N=NC(NCCc3c[nH]c4ccc(C)cc34)=NC2=O)cc1	ache (Electrophorus electricus, UniProt O42275)	enzyme activity, inhibitor	–	–	0.28 µM
N=C(N)NCCC[C@@H]1NC(=O)[C@H](CCCNC(=N)N)NC(=O)[C@H](NC(=O)[C@H](Cc2ccccc2)NC(=O)CNC(=O)CNC(=O)[C@H](Cc2ccccc2)NCc2ccccc2)CC(=O)NC[C@@H](C(=O)N[C@@H](CCCNC(=N)N)C(=O)N2CCC[C@H]2C(=O)N[C@@H](CCCCN)C(N)=O)NC1=O	Oprk1 (Rattus norvegicus, UniProt P34975)	cell-free assay	–	–	0.0687 µM
CC1(CCN2CCc3ccccc3C2)Cc2cc(Cl)ccc2C1=O (single isomer, unassigned)	HTR7 (Homo sapiens, UniProt P34969)	binding, radioligand binding	–	with: [3H]LSD	0.093 µM
O=C(O)Cc1cccc(NS(=O)(=O)c2cccc(Cl)c2O)c1	Beta-lactamase (ampC, Escherichia coli K-12, UniProt P00811)	enzyme activity, inhibitor	–	pH 6.5, 0.01% Triton X-100, 1% DMSO, with: CENTA or nitrocefin substrate	1.3 µM

Some of these lines once more:
Compound	target	assay	system	conditions	Ki
O=c1sc2ccccc2n1CCN1CCCC1	Sigmar1 (Rattus norvegicus, UniProt Q9R0C9)	binding, radioligand binding	rat liver membranes	with: [3H](+)-pentazocine 5 nM	0.578 ± 0.041 µM
